Measured values collected from several papers.
Protocols differ between the studies behind these lines. Several values in a cell are separate wells, animals, samples, runs or records. ± marks the error that the study gave.
RIPK2: Receptor-interacting serine/threonine-protein kinase 2 (RIPK2, Homo sapiens, UniProt O43353)
CDPK1: Calcium-dependent protein kinase 1 (CDPK1, Plasmodium falciparum, UniProt P62344)
MGLL: Monoglyceride lipase (MGLL, Homo sapiens, UniProt Q99685)
CACNA1I: Voltage-dependent T-type calcium channel subunit alpha-1I (CACNA1I, Homo sapiens, UniProt Q9P0X4)
Tpo: Thyroid peroxidase (Tpo, Rattus norvegicus, UniProt P14650)
gag-pol integrase: Gag-Pol polyprotein, integrase (gag-pol, Human immunodeficiency virus 1, UniProt P12497)

Molecule | target | test | test system | conditions | IC50
O=c1c(O)c(-c2cc(O)c(O)c(O)c2)oc2cc(O)cc(O)c12 | firefly luciferase | ADP-Glo ADP processing, luminescence counter-screen | cell-free, no kinase | up to 77 µM, together with: ADP 1.25 µM, ATP 11.25 µM | no inhibition
CCOC(=O)[C@@H]1[C@H]2[C@H](O)[C@@H](O)[C@H](O)[C@@H](CO)[C@@H]12 | Lysosomal acid glucosylceramidase (GBA1, Homo sapiens, UniProt P04062, R534H) | enzyme activity, inhibitor |  | pH 5.2 | > 150 µM
CN1C(=O)NC(Cc2c[nH]c3c(Cl)cccc23)C1=O (centres unmarked) | RIPK2 | enzyme activity, inhibitor, ADP-Glo kinase |  | 10 ng enzyme | > 10 µM
OC1CCCc2ccc(OCCOc3ccccc3)cc21 (centres unmarked) | Amine oxidase [flavin-containing] B (MAOB, Homo sapiens, UniProt P27338) | enzyme activity, inhibitor, fluorescence |  |  | 0.189 µM
CN1C[C@H](CNC(=O)OCc2ccccc2)C[C@@H]2c3cccc4c3c(cn4C)C[C@H]21 | human MBNL1 | CUG repeat RNA binding, inhibitor, HTRF |  | together with: biotin-(CUG)12 RNA | 25.1 µM
CCCNC(=N)NCCC[C@H](N)C(=O)O | Nitric oxide synthase 3 (Rattus norvegicus, UniProt Q62600) | cGMP accumulation | rat aortic rings | 25 min preincubation, together with: acetylcholine 10 µM | 4.3 µM and 4 µM
COc1ccc(C[C@@H](NC(=O)OCC2c3ccccc3-c3ccccc32)C(=O)O)cc1 | Bifunctional epoxide hydrolase 2, N-terminal phosphatase domain (EPHX2, Homo sapiens, UniProt P34913) | N-terminal phosphatase activity | human | 10 min preincubation, together with: AttoPhos 15 µM | 6.5 µM
COc1ccc(-c2cn(CC3CCN(C(C)=O)CC3)c3ncnc(N)c23)cc1OC | CDPK1 | enzyme activity, inhibitor |  |  | > 2 µM
O=C(Cc1c[nH]c2ccccc12)Nc1cccc(-c2nnc(C3CCCCC3)o2)c1 | α-amylase | enzyme activity, inhibitor |  |  | 3.4 µM
CCCCCCCC(=O)OC[C@H](CO)OC(=O)CCCCCCC | Cyclic nucleotide-gated channel alpha-1 (CNGA1, Bos taurus, UniProt Q00194) | cGMP-activated current, inhibitor, inside-out patch, Xenopus oocytes |  | single patch, together with: cGMP 30 µM | 0.41 µM
Nc1ccn([C@@H]2S[C@H](COP(=O)(O)OP(=O)(O)OP(=O)(O)O)[C@@H](O)[C@@H]2F)c(=O)n1 | POLA1 (Bos taurus, UniProt A0AAA9THK8) | enzyme activity, inhibitor, radiometric |  |  | 1.9 µM
O=C(OC(C(F)(F)F)C(F)(F)F)N1CCC(CCn2ccc3ccccc32)CC1 | MGLL | enzyme activity, inhibitor |  |  | 0.62 µM and 0.64 µM
Fc1ccc(CN(CC(F)(F)F)C2CCN(CCCc3c[nH]c4ccc(Cn5cncn5)cc34)CC2)cc1 | CACNA1I | inhibitor, FLIPR calcium | HEK293 with GCaMP6s-CAAX, Kir2.3 | together with: KCl at EC90 | 0.0026 µM
COc1ccc(/C=C2/C(=O)c3ccccc3C2N2CCOCC2)cc1 (centres unmarked) | Dual specificity protein phosphatase 6 (Homo sapiens, UniProt Q16828) | ERK phosphorylation restoration, inhibitor, chemical complementation | HeLa transfected with c-Myc-DUSP6 | 15 min, together with: TPA | > 100 µM
O=c1c(O)c(-c2ccc(O)c(O)c2)oc2cc(O)cc(O)c12 | UDP-glucuronosyltransferase 1A4 (UGT1A4, Homo sapiens, UniProt P22310) | glucuronidation | pooled human liver microsomes | no preincubation | 35 µM
COc1cc(/C=C/C(=O)CC(=O)/C=C/c2ccc(O)c(OC)c2)ccc1O | Tpo | tyrosine iodination, LC-MS/MS | rat thyroid microsomes | together with: KI 300 µM, H2O2 40 µM | 2.31 µM
COc1ccc(-c2cn(CCC3CCN(C(=O)OC(C)(C)C)CC3)c3ncnc(N)c23)cc1OC | CDPK1 | enzyme activity, inhibitor |  |  | > 2 µM
O=C(COc1ccc(Cl)c2ccccc12)Nc1cc(Cl)ccc1C(=O)O | Transient receptor potential cation channel subfamily M member 4 (TRPM4, Homo sapiens, UniProt Q8TD43) | ion flux, inhibitor, fluorescence |  |  | 2.2 µM
C[C@@H](CNCc1ccccc1)N1C[C@H](CCCNC(=N)N)N(CCc2cccc(F)c2)C1=S | Kappa-type opioid receptor (OPRK1, Homo sapiens, UniProt P41145) | receptor activation, antagonist, FLIPR |  |  | > 10 µM
O=P(O)(O)Oc1cc(OP(=O)(O)O)c(OP(=O)(O)O)cc1OCCOc1cc(OP(=O)(O)O)c(OP(=O)(O)O)cc1OP(=O)(O)O | Inositol polyphosphate-5-phosphatase A (Homo sapiens, UniProt Q14642) | enzyme activity, inhibitor |  | together with: Ins(1,4,5)P3 1.0 µM | 3.55 µM
Nc1ccn([C@@H]2O[C@H](COP(=O)(O)OP(=O)(O)OP(=O)(O)O)[C@@H](O)[C@H]2O)c(=O)n1 | inositol pyrophosphate kinase Vip1, CTP-swap V2 (Trichoderma virens, UniProt Z9USF9BXN2) | 5'-deoxyadenosine formation, inhibitor, LC-MS |  | pH 7.5, together with: 1 mM deuterated UTP, 1 mM SAM | 16 ± 6.5 µM

Molecule | target | test | test system | conditions | IC50
Nc1nc(N)c(N=O)c(OCc2ccc(Cl)cc2)n1 | Phosphatidylinositol 4,5-bisphosphate 3-kinase catalytic subunit delta isoform (PIK3CD, Homo sapiens, UniProt O00329) | enzyme activity, inhibitor |  |  | 0.5 µM and 1.1 µM
COc1cc(/C=C/C(O)=C/C(=O)/C=C/c2ccc(O)cc2)ccc1O | 3 beta-hydroxysteroid dehydrogenase/Delta 5-->4-isomerase type 2 (HSD3B2, Homo sapiens, UniProt P26439) | enzyme activity, inhibitor | KGN cell homogenate | lower bound from 100 µM screen, together with: pregnenolone | < 100 µM
CC(C)NCc1ccc(C[C@@H]2NC(=O)[C@H](N(C)C(=O)c3ccc4ccccc4c3)NC(=O)[C@H](Cc3ccccc3)NC(=O)[C@H](N)CSSC[C@@H](C(=O)N[C@@H](Cc3ccc4ccccc4c3)C(N)=O)NC(=O)[C@H](Cc3ccccc3)NC2=O)cc1 | Somatostatin receptor type 1 (SSTR1, Homo sapiens, UniProt P30872) | ligand displacement, radioligand |  | cell membranes | 0.316 µM and 0.267 µM
sodium copper chlorophyllin | Thiosulfate sulfurtransferase (TST, Bos taurus, UniProt P00586) | enzyme activity, inhibitor |  | Rho counter-screen | 11 µM
Cc1ccc(NC(=O)NC2(C(=O)N3CCOCC3)CCCCC2)cc1 | Endoplasmic reticulum aminopeptidase 1, open conformation (ERAP1, Homo sapiens, UniProt Q9NZ08) | enzyme activity, inhibitor, fluorogenic |  | partial inhibition, together with: L-AMC substrate | > 200 µM
C[C@]12CC3CC(Nc4c(Nc5ccc(CN6CCC[C@H](C(=O)NCCCCC(=O)NO)C6)cc5F)c(=O)c4=O)(C1)C[C@@](C)(C3)C2 | Bifunctional epoxide hydrolase 2 (EPHX2, Homo sapiens, UniProt P34913) | enzyme activity, inhibitor, fluorescence |  |  | 0.0884 µM
Cc1ncc([N+](=O)[O-])n1CC(C)O (centres unmarked) | Cytochrome P450 2C9 (CYP2C9, Homo sapiens, UniProt P11712) | enzyme activity, inhibitor | human liver microsomes | 30 min, together with: diclofenac | > 500 µM
CCOC(=O)/C(O)=C/C(=O)c1cn(Cc2ccc(F)cc2)c2c(F)cccc2c1=O | gag-pol integrase | 3'-processing, inhibitor, gel-based |  | together with: Mg2+ | > 333 µM
CCCS(=O)(=O)Nc1ccc(-c2cc(-c3ccc(N4CCNCC4)cc3)cnc2C)cc1OC | RIPK2 | kinase activity, inhibitor, ADP-Glo |  | tested up to 10 µM | > 10 µM
O=C(O)c1nn(Cc2ccc(Cl)cc2Cl)c2ccccc12 | Monocarboxylate transporter 4 (SLC16A3, Homo sapiens, UniProt O15427) | L-lactate transport, inhibitor | Xenopus laevis oocytes | pH 6.0, 22 °C, together with: L-lactate 0.5 mM | 40.4 ± 2.2 µM
O=C(NNC(=O)c1ccc(CNS(=O)(=O)c2ccc(F)c(Cl)c2)cc1)c1ccccc1 | Glutamate NMDA receptor; Grin1/Grin2a (Grin1/Grin2a, Rattus norvegicus, UniProt P35439+Q00959, M788I) | ion current, two-electrode voltage clamp |  | oocytes | 1 µM
COc1cc(/C=C/C(=O)O)ccc1O | firefly luciferase | ADP-Glo ADP processing, luminescence counter-screen | cell-free, no kinase | up to 77 µM, together with: ADP 1.25 µM, ATP 11.25 µM | no inhibition
COc1ccc(CCN(C)CCCOc2ccc(S(=O)(=O)c3c(C(C)C)c4ccccc4n3C)cc2)cc1OC | CACNA1I | inhibitor, FLIPR calcium | HEK293 with GCaMP6s-CAAX, Kir2.3 | together with: KCl at EC90 | 4.7 µM
CC(C)C[C@@H]1NC(=O)[C@H]([C@@H](C)O)NC(=O)[C@H](Cc2ccccc2)NC(=O)CNC(=O)[C@H](Cc2c[nH]c3ccccc23)NC(=O)[C@H](Cc2c[nH]cn2)NC(=O)[C@H]([C@@H](C)O)NC(=O)[C@H]([C@@H](C)O)NC(=O)[C@H](C)NC(=O)CCNC1=O | 72 kDa type IV collagenase (MMP2, Homo sapiens, UniProt P08253) | enzyme activity, inhibitor |  |  | 84 µM
O=C(O)/C(O)=C/C(=O)c1cn(Cc2ccc(F)cc2)c2ccccc2c1=O | gag-pol integrase | strand transfer, inhibitor, gel-based |  | together with: Mg2+ | 0.16 µM
Cc1ccc2c(ccn2CCC2CCN(C(=O)OC(C(F)(F)F)C(F)(F)F)CC2)c1 | MGLL | enzyme activity, inhibitor |  |  | 0.85 µM
NC(=O)c1nc(Nc2ccccc2)sc1NC(=O)C1CCCCC1 | Phosphatidylinositol 4-phosphate 5-kinase type-1 gamma (PIP5K1C, Homo sapiens, UniProt O60331) | enzyme activity, inhibitor, microfluidic mobility shift |  | together with: ATP 15 µM | 0.12 µM
C[C@@H]1O[C@@H](Oc2c(-c3ccc(O)cc3)oc3cc(O)cc(O)c3c2=O)[C@H](O[C@@H]2OC[C@@H](O)[C@H](O)[C@H]2O)[C@H](O)[C@H]1O | iunh (Leishmania donovani, UniProt Q8WQX2) | enzyme activity, inhibitor, absorbance |  |  | 74.7 µM and 74.6 µM
Oc1ccc(OCc2ccccc2)cc1 | Tpo | enzyme activity, inhibitor, LC-MS/MS, refers to: monoiodotyrosine | rat thyroid microsomes | together with: L-tyrosine substrate | 10.2 µM and 7.52 µM
CSc1ncc(C(=O)N[C@@H](CCC(=O)O)C(=O)N[C@@H](Cc2ccc3ccccc3c2)C(=O)N[C@@H](CC(C)C)C(=O)NC2CC2c2ccccc2)cn1 (some centres unmarked) | Adenomatous polyposis coli protein (APC, Homo sapiens, UniProt P25054) | ligand displacement, FP |  |  | 68.8 µM

Excerpt of the above:
Molecule | target | test | test system | conditions | IC50
COc1cc(/C=C/C(O)=C/C(=O)/C=C/c2ccc(O)cc2)ccc1O | 3 beta-hydroxysteroid dehydrogenase/Delta 5-->4-isomerase type 2 (HSD3B2, Homo sapiens, UniProt P26439) | enzyme activity, inhibitor | KGN cell homogenate | lower bound from 100 µM screen, together with: pregnenolone | < 100 µM
CN1C[C@H](CNC(=O)OCc2ccccc2)C[C@@H]2c3cccc4c3c(cn4C)C[C@H]21 | human MBNL1 | CUG repeat RNA binding, inhibitor, HTRF |  | together with: biotin-(CUG)12 RNA | 25.1 µM
CC(C)C[C@@H]1NC(=O)[C@H]([C@@H](C)O)NC(=O)[C@H](Cc2ccccc2)NC(=O)CNC(=O)[C@H](Cc2c[nH]c3ccccc23)NC(=O)[C@H](Cc2c[nH]cn2)NC(=O)[C@H]([C@@H](C)O)NC(=O)[C@H]([C@@H](C)O)NC(=O)[C@H](C)NC(=O)CCNC1=O | 72 kDa type IV collagenase (MMP2, Homo sapiens, UniProt P08253) | enzyme activity, inhibitor |  |  | 84 µM
